Measured values collected from several papers.
Every numbered part comes from another study and shows a few of its results, in no order. Changes are numbered by the printed parent chain.

Set 1
Target: Interferon regulatory factor 7, full length, phosphomimetic (IRF7, Homo sapiens, UniProt Q92985, residues 1-503, S471D/S472D/S475D/S476D/S477D/S483D/S484D/S487D)
Technique: protein-binding microarray
Molecule type: double-stranded DNA, one strand shown
Matrix: in vitro
Tested at: 2200 nM top
Notes: 60-bp whole probe
Added: salmon DNA 0.4 mg/ml
Baseline: random background probes
Direction: higher = stronger binding
Shared flanks, not repeated: GCCTAGCAC … GTCTTGATTCGCTTGACGCTGCTG
Residues (chain): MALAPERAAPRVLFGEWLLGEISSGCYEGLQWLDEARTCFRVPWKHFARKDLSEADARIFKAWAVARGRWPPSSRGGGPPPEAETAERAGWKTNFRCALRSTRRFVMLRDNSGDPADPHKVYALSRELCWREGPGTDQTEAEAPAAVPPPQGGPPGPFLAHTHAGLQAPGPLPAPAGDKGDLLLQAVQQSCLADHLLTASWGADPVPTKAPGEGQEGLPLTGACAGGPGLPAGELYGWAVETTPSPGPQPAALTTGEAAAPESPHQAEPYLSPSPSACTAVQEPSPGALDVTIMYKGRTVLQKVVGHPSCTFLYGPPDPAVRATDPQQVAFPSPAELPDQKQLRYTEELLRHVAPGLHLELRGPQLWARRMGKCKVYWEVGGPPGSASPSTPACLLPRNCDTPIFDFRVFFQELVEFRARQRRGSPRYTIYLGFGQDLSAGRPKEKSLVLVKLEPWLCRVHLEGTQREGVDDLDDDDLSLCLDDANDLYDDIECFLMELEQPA
Sequence | fitted relative affinity [z-score]
GACGGACTGGGCTTCGGGACGTGCTAG | -1.12
TTAGGTCTCATTCTCCTTTAGTGCTAG | 1.02
TTAGGTATCGTCTTTCGGTTAGTGCTA | 3.5
TCAACTTCTCTTTTTGCACTGTGCTAG | 1.68
GACGGTCTCCTTTTGCTGACGTGCTAG | 1.36
GACGGTTTCGGGTATCAGGACGTGCTA | 5.89
TCCCCTCTAGGTTCTCTGAAAGTGCTA | 0.622
GACGGACTGGGCATCGGGACGTGCTAG | -1.13
AAGCTTCTGGTCTTCTGGACGTGCTAG | 0.518
AGGCAGGCATAAAGGAAAAAGTGCTAG | -1.99
GACGGTTTCATTTCCCTGACGTGCTAG | 5.1
GGCGGACTGGACTATCGGGACGTGCTA | -1.31
GACGGACTGGGTTTCGAGACGTGCTAG | 0.874
TTAGAACTGAGTTTCGACTAGTGCTAG | 1.55
AAAGTCTTCACTCTGCTGAAGTGCTAG | 0.193
GACGTTATCCTTCTCCTGACGTGCTAG | 1.76
AGCAGGGCTGATGCTCCCCTGTGCTAG | -1.22
GACGAACTCAGTCTCGAGACGTGCTAG | 0.174
TTGGGACTGCTTATCCTTTAGTGCTAG | 0.566
GAGGAACTGGGGTATCGAGACGTGCTA | -0.632
GACGTTATCGGGTTTCGAGACGTGCTA | 2.05
TCACTTTTCCATTTTGTACTGTGCTAG | 4.73
GACGGTTACGGTTTCGGGACGTGCTAG | 3.57
TTAAGTTTCGACTATCGGTTAGTGCTA | 4.63
AGTATGAGTTGCCCTTTCCCGTGCTAG | 0.864

Set 2
Target: Sal-like protein 4, full length isoform A (SALL4, Homo sapiens, UniProt Q9UJQ4, residues 1-1053)
Sequence of UniProt Q9UJQ4 (whole entry, looked up): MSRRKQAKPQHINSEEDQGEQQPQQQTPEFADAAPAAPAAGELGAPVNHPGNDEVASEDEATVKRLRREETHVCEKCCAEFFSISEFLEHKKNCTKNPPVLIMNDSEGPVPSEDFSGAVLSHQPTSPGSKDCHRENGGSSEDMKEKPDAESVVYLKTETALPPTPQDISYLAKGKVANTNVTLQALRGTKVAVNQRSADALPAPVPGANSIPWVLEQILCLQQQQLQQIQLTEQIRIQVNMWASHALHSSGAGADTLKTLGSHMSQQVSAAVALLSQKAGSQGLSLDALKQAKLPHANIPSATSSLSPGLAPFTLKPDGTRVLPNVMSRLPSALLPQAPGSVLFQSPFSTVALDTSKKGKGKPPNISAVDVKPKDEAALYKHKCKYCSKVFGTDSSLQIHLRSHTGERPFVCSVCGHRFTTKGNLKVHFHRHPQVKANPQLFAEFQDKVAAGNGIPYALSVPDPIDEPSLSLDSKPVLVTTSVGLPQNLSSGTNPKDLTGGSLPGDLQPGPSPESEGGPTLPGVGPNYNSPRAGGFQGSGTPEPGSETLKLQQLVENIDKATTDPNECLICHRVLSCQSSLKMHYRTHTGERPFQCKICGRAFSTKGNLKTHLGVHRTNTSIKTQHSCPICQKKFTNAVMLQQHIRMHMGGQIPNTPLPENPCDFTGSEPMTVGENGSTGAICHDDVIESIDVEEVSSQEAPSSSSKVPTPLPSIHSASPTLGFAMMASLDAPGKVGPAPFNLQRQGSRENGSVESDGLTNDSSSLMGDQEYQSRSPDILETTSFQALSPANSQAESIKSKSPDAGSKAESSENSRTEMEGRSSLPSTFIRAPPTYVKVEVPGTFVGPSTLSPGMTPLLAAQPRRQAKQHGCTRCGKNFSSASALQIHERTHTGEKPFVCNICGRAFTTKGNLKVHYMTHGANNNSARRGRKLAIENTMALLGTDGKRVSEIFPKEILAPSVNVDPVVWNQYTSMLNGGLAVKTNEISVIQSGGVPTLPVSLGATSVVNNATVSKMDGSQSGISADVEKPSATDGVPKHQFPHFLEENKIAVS
Technique: universal PBM
Molecule type: double-stranded DNA, one strand shown
Matrix: in vitro
Tested at: 600 nM
Notes: 8-mer, flanks averaged, mean of replicates
Direction: higher = stronger binding
Sequence | E-score
AAACGTGT | 0.108
AGAGTCGA | -0.148
GCTACATA | 0.236
AAAATGAG | 0.25
CGGGGAAG | -0.215
CCTCACTC | -0.0928
AACCCACC | -0.224
ACCATCTC | -0.0463
GCGGTGCA | -0.284
CTAGCCTA | -0.105
ACCGCTCA | -0.0709
AAGTGTTG | 0.178
AGTTTAAG | 0.0706
GAATGCAA | 0.194

Set 3
Target: Ras GTPase-activating protein-binding protein 1, C-terminal RGG region (G3BP1, Homo sapiens, UniProt Q13283)
Sequence of UniProt Q13283 (whole entry, looked up): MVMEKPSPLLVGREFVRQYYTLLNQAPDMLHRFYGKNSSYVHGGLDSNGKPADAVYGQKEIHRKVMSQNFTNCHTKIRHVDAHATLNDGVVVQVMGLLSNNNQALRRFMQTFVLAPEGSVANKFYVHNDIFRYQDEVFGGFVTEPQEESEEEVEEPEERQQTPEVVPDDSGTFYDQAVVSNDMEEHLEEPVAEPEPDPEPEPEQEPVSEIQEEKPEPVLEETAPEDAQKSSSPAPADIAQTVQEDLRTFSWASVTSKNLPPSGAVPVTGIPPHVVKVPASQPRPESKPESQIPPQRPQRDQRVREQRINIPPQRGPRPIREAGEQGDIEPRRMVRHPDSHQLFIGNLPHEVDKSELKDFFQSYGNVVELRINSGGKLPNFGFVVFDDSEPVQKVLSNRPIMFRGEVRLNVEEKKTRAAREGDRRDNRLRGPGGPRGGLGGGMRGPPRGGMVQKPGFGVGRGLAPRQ
Technique: RNA Bind-n-Seq
Molecule type: RNA
Matrix: in vitro
Tested at: 1 µM
Notes: whole 134-nt RNA, ends assumed
Added: 150 mM KCl
Baseline: input library
Direction: higher = stronger binding
Sequence | log2 enrichment
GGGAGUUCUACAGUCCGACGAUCCAAGUCCUGUGCUACACAUCGUAUGUACCGAAUCGGGGAAAGGAAAGGGAAAGGGAAAGUAUUAUGUUACGCCGUUCGGAUCUGCACUUCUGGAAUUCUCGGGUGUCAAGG | -1.03
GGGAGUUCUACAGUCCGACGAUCUCCUGUGCUACACAUCGUAUGUACCGAAUCGGGAAAAAAAGGGAAAGGGUUUUUUUGGGAAAGUAUUAUGUUACGCCGUUCGGAUCUGCAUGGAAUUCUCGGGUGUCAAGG | -0.455
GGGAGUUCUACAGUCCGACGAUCCAAGUCCUGUGCUACACAUCGUAUGUACCGAAUCGGCCCCGGGCCCCGGCCCCGGGAAAGUAUUAUGUUACGCCGUUCGGAUCUGCACUUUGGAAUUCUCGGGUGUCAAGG | -1.84
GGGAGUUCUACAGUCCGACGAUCCUCAAGUCCUGUGCUACACAUCGUAUGUACCGAAUCGGGAGGGGAGGGAGGGGAAAGUAUUAUGUUACGCCGUUCGGAUCUGCACUUCCAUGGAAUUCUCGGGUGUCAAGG | 3.41
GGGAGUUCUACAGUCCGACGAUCGUAGGAAGUAAAAACAAAUGGAAAUGCUUCGGAUAGUGGCAGGGGUGGGGGUUGCUAAGGAAAGGGUGGGAUGGGAGUGGGUAAAGAGUUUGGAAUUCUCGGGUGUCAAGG | 1.19
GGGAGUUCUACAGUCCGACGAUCCCUCAAGUCCUGUGCUACACAUCGUAUGUACCGAAUCGGUGGGUGGGUGGGGAAAGUAUUAUGUUACGCCGUUCGGAUCUGCACUUCCAGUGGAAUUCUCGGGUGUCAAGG | 1.11
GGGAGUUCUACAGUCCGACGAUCUAACUUUAGAGGAGGAUCUGAUGGAUAUAGCAGUGGACGUGGAUUUGGGGAUGGCUAUAAUGGGUAUGGAGGAGGACCUGGAGGUGGCAAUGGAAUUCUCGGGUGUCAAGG | -1.16
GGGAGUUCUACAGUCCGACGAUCAGUCCUGUGCUACACAUCGUAUGUACCGAAUCGGGGUGGGGUGGGGUUUUUUUGGGGAAAGUAUUAUGUUACGCCGUUCGGAUCUGCACUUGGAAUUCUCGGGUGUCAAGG | 1.34
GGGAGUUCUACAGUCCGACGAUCUCUAUUCAUAAGAACCCCAACACAUCGGAGCCCCAACACCUGUUGGUGAUGAAGGGCGCCCCAGAAAGGAUCCUAGACCGUUGCAGCUCUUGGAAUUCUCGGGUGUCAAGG | -1.11
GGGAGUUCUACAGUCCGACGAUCGGUAUUCUGCAAGUACUGUAGAUGUUAUAGAAAUGAUGGAGGAUGAUAAAGUUGAUCUGAAUUUGAUUGUUGCCCUCAUCCGAUACAUUGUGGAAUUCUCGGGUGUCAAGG | -2.05
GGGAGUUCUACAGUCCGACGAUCCUGUGCUACACAUCGUAUGUACCGAAUCAAAUUUUUUUAAAUUUUUUUAAACCCCCCCAAAAAAGUAUUAUGUUACGCCGUUCGGAUCUGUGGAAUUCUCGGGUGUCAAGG | -0.847
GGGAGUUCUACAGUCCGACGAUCUUUUCAAAAUAAGGAGCUUCCCAGACCUGUGUUAGAAGGGCAGCAGUCAGAGAGGACCCCAAAUAAUCGCCCUGAUGCCCCUAAGGAGAAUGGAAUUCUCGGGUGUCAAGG | -1.57
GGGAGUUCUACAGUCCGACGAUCUUUUUCCAGAGCUCACAACGACCUGGGGCUGAGGACAAUGUCCUCAAUGAGAUCGUGAGUAUCUUGCAGCCCACCCAGGUCCCUGAGCAGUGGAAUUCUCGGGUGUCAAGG | -1.4
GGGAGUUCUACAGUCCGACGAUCCACAGACAACACGCACCCACACAGACACAGAGGGAAGGGGUUGGGAUGGGGGCAGGGUGCACAGCAGGGCGGGGUAGGACCCCAGCCCCUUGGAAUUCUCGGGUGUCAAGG | 0.611

Set 4
Target: ABI1, truncated, D143A, DHFR fusion (Arabidopsis thaliana)
Technique: DHFR PCA, deep sequencing
Matrix: yeast
Notes: methotrexate growth selection, single substitutions
Added: (+)-ABA 1.4 µM
Baseline: wild-type fitted maximum
Direction: higher = stronger binding
Starting sequence: PYL1, truncated, DHFR fusion (Arabidopsis thaliana); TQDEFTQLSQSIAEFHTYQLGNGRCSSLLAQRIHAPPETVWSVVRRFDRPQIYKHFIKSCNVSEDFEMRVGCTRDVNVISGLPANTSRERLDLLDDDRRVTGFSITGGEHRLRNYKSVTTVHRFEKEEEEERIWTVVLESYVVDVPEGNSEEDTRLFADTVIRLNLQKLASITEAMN; partner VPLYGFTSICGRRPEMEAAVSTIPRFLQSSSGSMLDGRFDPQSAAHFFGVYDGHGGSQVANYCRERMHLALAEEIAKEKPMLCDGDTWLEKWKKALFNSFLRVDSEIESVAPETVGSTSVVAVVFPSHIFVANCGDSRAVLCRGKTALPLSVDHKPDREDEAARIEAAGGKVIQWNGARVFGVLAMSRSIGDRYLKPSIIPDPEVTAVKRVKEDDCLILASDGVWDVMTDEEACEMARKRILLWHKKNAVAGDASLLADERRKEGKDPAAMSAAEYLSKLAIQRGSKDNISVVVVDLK
Change | relative binding score
D48G | 3.68%
A13S | 43.6%
T17K | 11.3%
C72G | 10.6%
E174C | 6.7%
D48M | -4.61%
P50R | -0.593%
S27E | -2.13%
W41F | -10.6%
Y18N | 0.956%
E14W | -4.65%
S11P | 65.4%
S80H | 13.6%
L91T | 4.01%
T86A | 22.9%
F124S | 24.7%

Set 5
Target: Histone acetyltransferase KAT6A, both winged helices, GST fusion (KAT6A, Homo sapiens, UniProt Q92794, residues 1-181)
Technique: protein binding microarray
Molecule type: double-stranded DNA, one strand shown
Matrix: in vitro
Tested at: not given
Notes: 8-mer, flanks averaged, mean of 2 arrays, mostly near background
Baseline: not given
Direction: higher = stronger binding
Target sequence (chain): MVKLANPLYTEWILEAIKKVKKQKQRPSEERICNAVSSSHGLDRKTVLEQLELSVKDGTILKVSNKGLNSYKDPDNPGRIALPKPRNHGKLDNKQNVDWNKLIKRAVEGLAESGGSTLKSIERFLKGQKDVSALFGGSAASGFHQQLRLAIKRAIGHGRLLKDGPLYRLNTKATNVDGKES
Sequence | E-score
CTTCCTTA | -0.156
AGAACGCG | 0.302
AACTCGAA | -0.102
GGTTTATA | 0.0988
ACGCCGTA | 0.286
ATCTGTAC | -0.0238
GGAGGTCA | -0.117
AGTCGAGC | -0.106
TCAGTCGA | -0.068
ATTTTATC | 0.0414
AACGGAGC | 0.174
CACAGACA | -0.0997
CCAGATAC | -0.121
ACCCACCT | -0.207
ATGAACAG | -0.169
ACAACGTG | -0.00983
ATTGGCTA | -0.0834
TACGGTAA | 0.171
ATGTCAGA | -0.0693

Set 6
Target: CCNA2, cyclin fold, Cln2 fusion (human)
Technique: yeast growth competition, sequencing
Matrix: yeast
Notes: strong parent motif
Baseline: not given
Direction: higher = stronger binding
Starting sequence: WEE1 docking peptide (human); HKTFRKLRLFDTP
Change | normalised enrichment score
HKTFRKLRLFDTY [P13Y] | 0.896
HKTFRKLKLFDTP [R8K] | 1.4
HKTFRKLRLFPTP [D11P] | 2.17
HKRFRKLRLFDTP [T3R] | 1.17
HKTFRKLRDFDTP [L9D] | 1.37
HKTYRKLRLFDTP [F4Y] | 0.569
HKTFCKLRLFDTP [R5C] | 1.02
HKTFRKLRLFWTP [D11W] | 1.54
HKTFRKLELFDTP [R8E] | 2.44
HKTFRHLRLFDTP [K6H] | 1.06
HKTFRKQRLFDTP [L7Q] | 1.42
HKTVRKLRLFDTP [F4V] | 1.28
HKTFRKLRLFSTP [D11S] | -0.132
HKTFRNLRLFDTP [K6N] | 2.02
WKTFRKLRLFDTP [H1W] | 2.2

Repeated from above (set 4):
Change | relative binding score
S11P | 65.4%
E174C | 6.7%
S80H | 13.6%
L91T | 4.01%
T17K | 11.3%
S27E | -2.13%
T86A | 22.9%
D48M | -4.61%
D48G | 3.68%
E14W | -4.65%
A13S | 43.6%
W41F | -10.6%
